Experimental data from different studies.
± gives the spread as reported.
Sample: plasma

With `Cc1ccccc1-c1cc(N2CC[N+](C)([O-])CC2)ncc1N(C)C(=O)C(C)(C)c1cc(C(F)(F)F)cc(C(F)(F)F)c1` the Tmax was 4.64 to 5.57 h (healthy volunteers; oral, dose not given).
With `NC(=O)c1cnc2[nH]ccc2c1NC1C2CC3CC1CC(OS(=O)(=O)O)(C3)C2` (centres unmarked) the Tmax (median) was 1.5 h (Japanese adults, normal hepatic function; oral, 150 mg single dose).
`CC(C)(Sc1cc[n+]([O-])cc1-c1ccc(C#N)c2ccccc12)C(=O)OC1OC(C(=O)O)C(O)C(O)C1O` (centres unmarked) gave a Tmax of 3.5 h (oral, 15 mg, normal renal function, fasted).
For `Cn1cc(C(N)=O)c(NC2C3CC4CC2CC(OS(=O)(=O)O)(C4)C3)c2ccnc1-2` (centres unmarked), the Tmax (median) was 3 h (Japanese adults, mild hepatic impairment; oral, 150 mg single dose).
For `CC(=O)N[C@H](CC(=O)O)C(=O)N[C@H](Cc1c[nH]c2ccccc12)C(=O)N[C@H](Cc1ccccc1)C(=O)N[C@H](CCCCN)C(=O)N[C@H](C)C(=O)N[C@H](Cc1ccccc1)C(=O)N[C@H](Cc1ccc(O)cc1)C(=O)N[C@H](CC(=O)O)C(=O)N[C@H](CCCCN)C(=O)N[C@@H](C(=O)N[C@H](C)C(=O)N[C@H](CCC(=O)O)C(=O)N[C@H](CCCCN)C(=O)N[C@H](Cc1ccccc1)C(=O)N[C@H](CCCCN)C(=O)N[C@H](CCC(=O)O)C(=O)N[C@H](C)C(=O)N[C@H](Cc1ccccc1)C(N)=O)C(C)C`, the Tmax was 2.25 h (statin-treated high-risk CHD patients; oral, 100 mg daily, day 13, mean, detected subjects).
`CCCC[C@H](NC(=O)[C@H](CC(C)C)N(C)C(=O)CNC(=O)[C@@H](NC(=O)[C@H](Cc1ccccc1)NC(=O)[C@H](CCCCN)NC(=O)[C@@H](N)CC(=O)O)C(C)C)C(N)=O` has a Tmax of 0.167 h (Göttingen minipig; subcutaneous, 100 µg/kg).
For `COc1cc(C)c(Cc2ccc(O)cc2)cc1[C@@H]1S[C@H](CO)[C@@H](O)[C@H](O)[C@H]1O`, the Tmax was 2.07 ± 0.932 h (Japanese T2DM patients; 0.5 mg luseogliflozin, day 7, once daily).
With `CN1CCN(c2cc(-c3ccccc3CO)c(N(C)C(=O)C(C)(C)c3cc(C(F)(F)F)cc(C(F)(F)F)c3)cn2)CC1` the Tmax was 10.5 to 16.7 h (healthy volunteers; oral, dose not given).
`Cn1cc(C(N)=O)c(NC2C3CC4CC2CC(O)(C4)C3)c2ccnc1-2` (centres unmarked) has a Tmax (median) of 3.5 h (Japanese adults, normal hepatic function; oral, 150 mg single dose).
`CC(C)(Sc1ccncc1-c1ccc(C#N)c2ccccc12)C(=O)OC1OC(C(=O)O)C(O)C(O)C1O` (centres unmarked) gave a Tmax of 2.5 h (oral, 15 mg, normal renal function, fasted).
`Cc1ccccc1-c1cc(N2CCNCC2)ncc1N(C)C(=O)C(C)(C)c1cc(C(F)(F)F)cc(C(F)(F)F)c1` has a Tmax of 9.85 h (healthy volunteers; oral, dose not given, netupitant-palonosetron fixed-dose combination).

A few entries again:
`Cn1cc(C(N)=O)c(NC2C3CC4CC2CC(O)(C4)C3)c2ccnc1-2` (centres unmarked) has a Tmax (median) of 3.5 h (Japanese adults, normal hepatic function; oral, 150 mg single dose).
